Results pooled from the literature.
Every numbered part comes from another study and shows a few of its results, in no order. Values joined by “and” are separate records of one study, mostly repeats; a detail may differ.
Chain of UniProt P11229 (whole entry, looked up): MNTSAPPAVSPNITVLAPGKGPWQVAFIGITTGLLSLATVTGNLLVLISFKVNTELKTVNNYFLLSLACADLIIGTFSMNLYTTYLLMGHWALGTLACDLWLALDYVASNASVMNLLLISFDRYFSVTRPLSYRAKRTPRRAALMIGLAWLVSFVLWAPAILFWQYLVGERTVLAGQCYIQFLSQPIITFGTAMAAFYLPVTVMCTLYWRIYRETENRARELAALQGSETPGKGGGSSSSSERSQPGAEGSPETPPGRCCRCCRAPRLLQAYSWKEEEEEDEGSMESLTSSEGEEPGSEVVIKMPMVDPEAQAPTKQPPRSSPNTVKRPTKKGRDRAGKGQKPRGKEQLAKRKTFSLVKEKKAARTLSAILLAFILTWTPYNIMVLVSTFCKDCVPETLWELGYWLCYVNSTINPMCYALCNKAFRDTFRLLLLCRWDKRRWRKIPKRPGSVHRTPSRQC
Chain of UniProt P28335 (whole entry, looked up): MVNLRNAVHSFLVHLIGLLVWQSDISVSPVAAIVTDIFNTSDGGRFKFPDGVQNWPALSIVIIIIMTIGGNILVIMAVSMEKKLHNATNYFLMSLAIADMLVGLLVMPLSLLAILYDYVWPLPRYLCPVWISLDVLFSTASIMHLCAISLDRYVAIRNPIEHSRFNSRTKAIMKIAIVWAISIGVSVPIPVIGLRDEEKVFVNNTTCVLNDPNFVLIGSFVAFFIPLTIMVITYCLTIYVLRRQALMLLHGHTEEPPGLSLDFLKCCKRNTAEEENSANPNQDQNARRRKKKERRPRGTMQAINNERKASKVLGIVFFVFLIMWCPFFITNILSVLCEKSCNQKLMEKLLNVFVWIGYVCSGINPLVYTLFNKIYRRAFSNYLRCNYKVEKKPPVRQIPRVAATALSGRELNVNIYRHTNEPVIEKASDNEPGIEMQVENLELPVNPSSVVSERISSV
Chain of UniProt P28223 (whole entry, looked up): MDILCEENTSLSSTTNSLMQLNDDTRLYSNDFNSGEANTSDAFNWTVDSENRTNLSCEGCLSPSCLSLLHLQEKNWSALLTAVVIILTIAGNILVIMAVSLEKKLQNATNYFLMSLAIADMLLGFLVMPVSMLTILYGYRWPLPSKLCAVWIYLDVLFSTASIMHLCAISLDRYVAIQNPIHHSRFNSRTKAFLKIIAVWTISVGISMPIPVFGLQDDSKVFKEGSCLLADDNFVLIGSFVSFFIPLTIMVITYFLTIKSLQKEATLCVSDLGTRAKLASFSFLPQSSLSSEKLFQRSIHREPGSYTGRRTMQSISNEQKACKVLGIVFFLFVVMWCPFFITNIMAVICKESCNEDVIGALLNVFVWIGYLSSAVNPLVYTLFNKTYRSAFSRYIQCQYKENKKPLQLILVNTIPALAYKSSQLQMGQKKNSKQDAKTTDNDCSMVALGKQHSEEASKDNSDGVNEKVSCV
Chain of UniProt P41143 (whole entry, looked up): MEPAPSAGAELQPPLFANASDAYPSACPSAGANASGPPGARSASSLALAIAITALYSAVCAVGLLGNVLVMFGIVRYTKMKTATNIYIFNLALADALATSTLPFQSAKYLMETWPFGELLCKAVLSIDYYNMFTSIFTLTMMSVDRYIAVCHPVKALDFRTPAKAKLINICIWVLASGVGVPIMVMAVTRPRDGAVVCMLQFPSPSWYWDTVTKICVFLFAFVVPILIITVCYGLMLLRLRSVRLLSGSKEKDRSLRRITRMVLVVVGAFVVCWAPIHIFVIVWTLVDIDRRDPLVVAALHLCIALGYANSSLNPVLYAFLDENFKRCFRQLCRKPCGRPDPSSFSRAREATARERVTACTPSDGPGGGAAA

Sample 1
Cell line: HEK-293T-ACE2-TMPRSS2
Technique: cell count
Concentration: concentration not given
| Structure (SMILES) | viability [%] |
| --- | --- |
| COc1cccc(NC(=O)CCC2CCN(C(=O)c3cnn(C(C)C)c3)CC2)c1 | 108 |
| N#CC(C#N)=C/C=C(\Sc1nnnn1-c1ccccc1)c1ccccc1 | 65 |
| O=C(C1CCCCC1)N1C[C@@H](CO)[C@H](c2ccncc2)C1 | 105 |
| CCOC(=O)c1nc(NCCCN2CCN(c3cc(C)ccc3C)CC2)c2ccccc2n1 | 83 |
| Cc1ccc(C(=O)C2=C(O)C(=O)N(CC(C)C)C2c2cccc(O)c2)cc1 (stereo not drawn) | 67 |
| c1ccc(-c2cn3c(n2)CCc2ccc4cccnc4c2-3)cc1 | 67 |
| O=C(NCCc1nc2ccccc2[nH]1)c1cc(COc2ccccc2)[nH]n1 | 72 |
| COc1ccc(CCNC(=O)C2CCN(c3ncnc4oc(C)c(C)c34)CC2)c(OC)c1 | 76 |
| C=C1C(=O)O[C@H]2[C@H]1CC/C(C)=C\CC[C@@]1(C)O[C@@H]21 | 91 |
| CC(C)Nc1ncc(CN2CCC(c3ccnc(-c4ccc5c(c4)OCO5)c3)C2)cn1 (stereo not drawn) | 67 |
| COc1ccccc1N1CCN(C(=O)c2nc(S(=O)(=O)Cc3ccccc3)ncc2Cl)CC1 | 77 |
| Cc1ccnc(CC(C)N(C)C(=O)c2cc3ccccc3s2)c1 (stereo not drawn) | 73 |
| CCOC(=O)c1cnn(-c2ccc(C(=O)NCC3CCN(Cc4ccc(Cl)cc4)CC3)cc2)c1N | 67 |
| CN1CCN(CCNC(=O)Nc2ccccc2-c2ccccc2)CC1 | 69 |
| CCS(=O)(=O)c1ncc(Cl)c(C(=O)Nc2cc(C)ccc2C)n1 | 77 |
| Cn1ccc2ccn(CC(=O)Nc3cccc(Br)c3)c(=O)c21 | 103 |
| Cc1ccsc1C(=O)N1C2CCC1c1cnc(-c3ccc(F)cc3)nc1C2 (stereo not drawn) | 71 |
| Cc1nn(C)c(C)c1CCNS(=O)(=O)c1ccc(NC(=O)CC(C)C)cc1 | 66 |
| Cc1ccc(C(=O)NCCC2=CCCN(C3C=CCCC3)C2)cc1F (stereo not drawn) | 81 |
| CCOC(=O)c1cccc(NC(=O)CCS(=O)(=O)c2ccc(Br)s2)c1 | 108 |
| Cc1ccc(CN2CCC(CNC(=O)C3CCN(c4ccc(-c5cccs5)nn4)CC3)C2)cc1 (stereo not drawn) | 90 |
| Cn1ccnc1C(Nc1ncnc2c1cnn2-c1ccc(F)cc1)c1ccccc1 (stereo not drawn) | 69 |
| Cc1ccc(S(=O)(=O)NC(C(=O)NCC(=O)N2CCCc3ccccc32)C(C)C)cc1 (stereo not drawn) | 65 |
| CCOC(=O)c1ccc2c(c1)[C@@H]1C=CC[C@@H]1[C@H](c1ccccc1OCc1ccccc1)N2 | 81 |
| Cc1nc2ccccc2n(Cc2ccc(C(=O)NC3CCN(Cc4ccccc4)CC3)cc2)c1=O | 74 |

Sample 2
SMILES: CNCc1ccccc1-c1csc([C@H](C)Nc2nc(C)nc3cc(OC)c(OC)cc23)c1
Effect on: binding
Technique: radioligand binding
Concentration: 10 µM
| target | inhibition [%] |
| --- | --- |
| Delta-type opioid receptor (OPRD1, Homo sapiens, UniProt P41143) | 10.5 |
| 5-hydroxytryptamine receptor 2C (HTR2C, Homo sapiens, UniProt P28335) | 71.8 |
| Muscarinic acetylcholine receptor M1 (CHRM1, Homo sapiens, UniProt P11229) | 89.1 |
| 5-hydroxytryptamine receptor 2A (HTR2A, Homo sapiens, UniProt P28223) | 99.2 |

Sample 3
SMILES: [N-]=[N+]=CC(=O)CC[C@H](N)C(=O)O
Species: mouse, EL4 tumour
Route: intravenous
Dose: 1 mg/kg
| setting | tumour volume |
| --- | --- |
| day 17 | 0 mm3 |
| day 18 | 0 mm3 |
| day 14 | 0 mm3 and 249 mm3 and 274 mm3 and 111 mm3 |
| day 8 | 237 mm3 and 252 mm3 and 548 mm3 and 288 mm3 and 560 mm3 and 680 mm3 and 405 mm3 and 301 mm3 |
| day 16 | 0 mm3 |

Sample 4
Cell line: HEK-293T/ACE2
Technique: Hoechst nuclei count
Concentration: concentration not given
Time: 16 (unit not given)
Baseline: vehicle
| SMILES | viability [%] |
| --- | --- |
| CCCNS(=O)(=O)Nc1ncnc(OCCOc2ncc(Br)cn2)c1-c1ccc(Br)cc1 | 98.3 |
| CN1CCC(=C2c3ccccc3CCc3cccnc32)CC1 | 97.6 |
| CN(C)CC/C=C1/c2ccccc2Sc2ccc(Cl)cc21 | 98.1 |
| COc1cc(C(=O)NS(=O)(=O)c2ccccc2C)ccc1Cc1cn(C)c2ccc(NC(=O)OC3CCCC3)cc12 | 99.6 |
| COc1ccc(CN=c2[nH]c(N3CCC[C@H]3CO)ncc2C(=O)NCc2ncccn2)cc1Cl | 106 |
| N#CC1(c2ccc(NC(=O)c3cccnc3NCc3ccncc3)cc2)CCCC1 | 95.3 |
| OCCOCCN1CCN(C(c2ccccc2)c2ccc(Cl)cc2)CC1 (stereo not drawn) | 101 |
| Nc1ncn([C@H]2C[C@H](O)[C@@H](CO)O2)c(=O)n1 | 97.7 |
| CCCCCCCCCC(=O)O[C@H]1CC[C@H]2[C@@H]3CCC4=CC(=O)CC[C@@H]4[C@H]3CC[C@]12C | 106 |
| CN(Cc1cnc2nc(N)nc(N)c2n1)c1ccc(C(=O)N[C@@H](CCC(=O)O)C(=O)O)cc1 | 88.1 |
| C[C@]12CCC3=C4CCC(=O)C=C4CC[C@H]3[C@@H]1CC[C@@]2(O)CC#N | 108 |
| CC(=O)Oc1ccc(C(c2ccc(OC(C)=O)cc2)c2ccccn2)cc1 | 99.2 |
| CNCC(O)c1ccc(OC(=O)C(C)(C)C)c(OC(=O)C(C)(C)C)c1 (stereo not drawn) | 100 |
| NCCCNCCSP(=O)(O)O | 99.3 |
| C[C@]12CC[C@H](O)CC1=CC[C@@H]1[C@@H]2CC[C@]2(C)C(c3cccnc3)=CC[C@@H]12 | 95.9 |
| Cc1c(O)cccc1C(=O)N[C@@H](CSc1ccccc1)[C@H](O)CN1C[C@H]2CCCC[C@H]2C[C@H]1C(=O)NC(C)(C)C | 93.6 |
| CCc1nn(CCCN2CCN(c3cccc(Cl)c3)CC2)c(=O)n1CCOc1ccccc1 | 96.4 |

Some of these lines once more (sample 4):
| SMILES | viability [%] |
| --- | --- |
| CN1CCC(=C2c3ccccc3CCc3cccnc32)CC1 | 97.6 |
| CN(Cc1cnc2nc(N)nc(N)c2n1)c1ccc(C(=O)N[C@@H](CCC(=O)O)C(=O)O)cc1 | 88.1 |
| CC(=O)Oc1ccc(C(c2ccc(OC(C)=O)cc2)c2ccccn2)cc1 | 99.2 |
| N#CC1(c2ccc(NC(=O)c3cccnc3NCc3ccncc3)cc2)CCCC1 | 95.3 |
| C[C@]12CC[C@H](O)CC1=CC[C@@H]1[C@@H]2CC[C@]2(C)C(c3cccnc3)=CC[C@@H]12 | 95.9 |
